Earlier results, collected from citations in different studies.
Numbered parts are unrelated; values within a part may stem from several laboratories. ± gives the spread as reported. Converted amounts (≈) assume the structure as drawn.

Sample 1
Structure (SMILES): CO/N=C(\C(=O)N[C@@H]1C(=O)N2C(C(=O)O)=C(COC(C)=O)CS[C@H]12)c1csc(N)n1
The MIC was 16 µg/mL (≈ 35.1 µM) (Enterobacter cloacae; clinical isolate RKI-No_546/13).
For Acinetobacter baumannii; clinical isolate RKI-No_11/16: MIC read over 16 µg/mL.
It gave 4 µg/mL (≈ 8.78 µM) for MIC (Escherichia coli; clinical isolate RKI-No_581/16).

Mixed results
The intrinsic clearance of `CC1COc2ccccc2N1C(=O)C(Cl)Cl` (stereo not drawn) is reported as 0.3 mL/min/mg protein (cytosolic glutathione S-transferase; rat, female, liver cytosol).
`CCC(CC)COC(=O)[C@H](C)N[P@](=O)(OC[C@H]1O[C@@](C#N)(c2ccc3c(N)ncnn23)[C@H](O)[C@@H]1O)Oc1ccccc1` gave an EC50 of 30 ± 10 nM (SARS-CoV-2; viral replication; Caco-2).
`Fc1ccccc1Cc1nc(-c2nc(C(F)(F)F)n[nH]2)cn2ccnc12` — result for “plasma protein binding”: 98.5% (equilibrium dialysis; rat plasma; 1 and 10 µM).

For quick reference, copied from above (sample 1):
For Acinetobacter baumannii; clinical isolate RKI-No_11/16: MIC read over 16 µg/mL.
